Published values of several laboratories.
Each line is one published result; not all experiments were run side by side. ± marks the error that the study gave.
Urea transporter 1: Urea transporter 1 (Homo sapiens, UniProt Q13336)
Chain of UniProt Q13336 (whole entry, looked up): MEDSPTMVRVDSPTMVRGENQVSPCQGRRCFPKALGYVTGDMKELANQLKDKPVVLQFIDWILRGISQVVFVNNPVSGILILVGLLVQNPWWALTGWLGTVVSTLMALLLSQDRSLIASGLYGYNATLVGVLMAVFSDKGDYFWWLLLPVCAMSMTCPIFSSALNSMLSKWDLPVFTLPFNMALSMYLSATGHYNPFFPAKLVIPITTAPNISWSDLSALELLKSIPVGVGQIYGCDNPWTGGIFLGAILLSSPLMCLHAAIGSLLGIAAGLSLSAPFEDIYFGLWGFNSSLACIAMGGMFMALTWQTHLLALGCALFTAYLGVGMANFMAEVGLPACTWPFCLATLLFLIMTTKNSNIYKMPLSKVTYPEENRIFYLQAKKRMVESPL
CYP2E1: Cytochrome P450 2E1 (CYP2E1, Homo sapiens, UniProt P05181)
Chain of UniProt P05181 (whole entry, looked up): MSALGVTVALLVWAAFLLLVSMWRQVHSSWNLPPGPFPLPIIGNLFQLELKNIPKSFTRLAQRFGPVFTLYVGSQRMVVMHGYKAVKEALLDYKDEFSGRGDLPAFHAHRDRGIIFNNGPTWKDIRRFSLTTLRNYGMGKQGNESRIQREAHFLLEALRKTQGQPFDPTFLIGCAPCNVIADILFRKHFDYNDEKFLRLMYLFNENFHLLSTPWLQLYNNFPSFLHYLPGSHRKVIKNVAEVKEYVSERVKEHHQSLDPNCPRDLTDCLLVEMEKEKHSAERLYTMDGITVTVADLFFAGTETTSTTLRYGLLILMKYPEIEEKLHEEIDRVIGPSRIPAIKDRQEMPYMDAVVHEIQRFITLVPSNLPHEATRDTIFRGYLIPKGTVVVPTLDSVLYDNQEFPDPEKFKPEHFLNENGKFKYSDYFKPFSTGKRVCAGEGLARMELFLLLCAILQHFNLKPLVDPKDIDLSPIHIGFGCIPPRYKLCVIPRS
IDE: Insulin-degrading enzyme (IDE, Homo sapiens, UniProt P14735)
Chain of UniProt Q9Y2H5 (whole entry, looked up): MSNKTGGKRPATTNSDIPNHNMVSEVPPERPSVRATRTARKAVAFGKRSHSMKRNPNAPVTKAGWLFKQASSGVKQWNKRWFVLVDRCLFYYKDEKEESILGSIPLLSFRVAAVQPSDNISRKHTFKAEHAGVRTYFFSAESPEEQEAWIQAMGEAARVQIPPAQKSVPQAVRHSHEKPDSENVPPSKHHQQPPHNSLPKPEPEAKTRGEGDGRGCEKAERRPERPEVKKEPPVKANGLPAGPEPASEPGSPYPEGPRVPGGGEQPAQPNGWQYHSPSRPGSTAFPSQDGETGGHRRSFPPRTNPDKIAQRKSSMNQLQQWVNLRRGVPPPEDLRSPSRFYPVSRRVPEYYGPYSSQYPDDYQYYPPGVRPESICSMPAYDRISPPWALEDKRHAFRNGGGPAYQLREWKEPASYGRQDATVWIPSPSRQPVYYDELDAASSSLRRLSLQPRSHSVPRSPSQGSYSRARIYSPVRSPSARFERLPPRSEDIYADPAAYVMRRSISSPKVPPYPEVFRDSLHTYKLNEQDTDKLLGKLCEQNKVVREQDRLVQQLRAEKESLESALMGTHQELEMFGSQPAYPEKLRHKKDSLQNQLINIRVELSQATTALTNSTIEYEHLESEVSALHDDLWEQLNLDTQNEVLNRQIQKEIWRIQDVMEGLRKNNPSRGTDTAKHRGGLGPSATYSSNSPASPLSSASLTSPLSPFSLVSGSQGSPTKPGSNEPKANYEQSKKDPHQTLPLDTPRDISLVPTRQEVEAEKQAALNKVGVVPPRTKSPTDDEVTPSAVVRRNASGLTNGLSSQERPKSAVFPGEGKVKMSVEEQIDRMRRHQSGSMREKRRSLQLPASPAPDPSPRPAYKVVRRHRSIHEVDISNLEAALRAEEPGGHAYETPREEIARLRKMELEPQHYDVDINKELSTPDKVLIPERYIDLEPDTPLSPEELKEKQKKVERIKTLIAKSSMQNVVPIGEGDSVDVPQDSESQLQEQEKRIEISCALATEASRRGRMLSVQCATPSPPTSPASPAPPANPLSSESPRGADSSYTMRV

SMILES | target | test | system | conditions | measurement | result
NC(=O)C(=O)O | Urea transporter 1 | urea transport | – | – | Ki | no effect
CCc1oc2ccccc2c1C(=O)c1cc(Br)c(O)c(Br)c1 | CYP2E1 | p-nitrophenol hydroxylation, inhibitor | baculosomes | 10 min, with additive 1 µM | Ki | 0.53 µM
CCC(=O)N1[C@H](CO)[C@H](c2ccc(-c3ccccc3OC)cc2)[C@@H]1CNC(C)=O | IDE | enzyme activity, inhibitor, fluorogenic kinetic | – | together with: Mca-RPPGFSAFK(Dnp)-OH substrate | EC50 | 5.8 µM
NCCCC(=O)Nc1nnc(S(N)(=O)=O)s1 | Enterococcus faecium γ-carbonic anhydrase | CO2 hydration, inhibitor, stopped-flow kinetics | – | – | Ki | 0.0352 µM
CCOc1ccc(C(=O)CC(SCc2ccccc2)C(=O)O)cc1 (stereo not drawn) | Pleckstrin homology domain-containing family A member 6, PH domain (PLEKHA6, Homo sapiens, UniProt Q9Y2H5) | PLEKHA6 PI(4,5)P2 binding, fluorescence polarization | – | together with: BODIPY-PI(4,5)P2 tracer | Ki | 170 ± 45 µM
COC(=O)c1ccc(S(=O)(=O)N2CCCCN3[C@H](CO)[C@@H](c4ccc(-c5cccc(C)c5C)cc4)[C@@H]3C2)n1C | IDE | enzyme activity, inhibitor, fluorescence kinetic | – | together with: Mca-RPPGFSAFK(Dnp)-OH substrate | EC50 | > 5 µM
NCCC(=O)Nc1nnc(S(N)(=O)=O)s1 | Enterococcus faecium γ-carbonic anhydrase | CO2 hydration, inhibitor, stopped-flow kinetics | – | – | Ki | 0.068 µM
NC(N)=S | Urea transporter 1 | urea transport | – | inhibitor outside only | Ki | 12000 µM
CCc1oc2ccccc2c1C(=O)c1cc(I)c(O)c(I)c1 | CYP2E1 | p-nitrophenol hydroxylation, inhibitor | baculosomes | 10 min, with additive 1 µM | Ki | 0.31 µM
NS(=O)(=O)c1nnc(NC(=O)CN2CCC3(CC2)COC3)s1 | Enterococcus faecium γ-carbonic anhydrase | CO2 hydration, inhibitor, stopped-flow kinetics | – | – | Ki | 0.086 µM
NC(=S)c1ccncc1 | Urea transporter 1 | urea transport inhibition | – | together with: thiourea | Ki | 300 µM
Nc1ncnc2c1ncn2[C@@H]1O[C@H](COP(=O)(O)OP(=O)(O)O)[C@@H](O)[C@H]1O | klp-6 (Caenorhabditis elegans, UniProt G5EFQ4) | microtubule gliding velocity, competitive inhibitor, single-molecule TIRF | – | pH 7.4, together with: Mg-ATP varied, porcine microtubules | Ki | 901 ± 31 µM
